Measured values collected from several papers.
Each line is one published result; not all experiments were run side by side.
UCHL1: Ubiquitin carboxyl-terminal hydrolase isozyme L1 (UCHL1, Homo sapiens, UniProt P09936)
UniProt P09936, sequence (whole entry, looked up): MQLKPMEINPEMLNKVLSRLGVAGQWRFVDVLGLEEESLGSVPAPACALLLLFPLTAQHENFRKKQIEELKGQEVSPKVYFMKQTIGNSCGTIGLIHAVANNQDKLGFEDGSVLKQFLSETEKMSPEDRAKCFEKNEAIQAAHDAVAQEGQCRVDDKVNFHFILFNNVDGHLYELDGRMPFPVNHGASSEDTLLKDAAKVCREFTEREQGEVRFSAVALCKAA

SMILES = CC[C@]1(O)C[C@@H]2CN(CCc3c([nH]c4ccccc34)[C@@](C(=O)OC)(c3cc4c(cc3OC)N(C)[C@H]3[C@@](O)(C(=O)OC)[C@H](OC(C)=O)[C@]5(CC)C=CCN6CC[C@]43[C@@H]65)C2)C1; target or system = Trypanosoma cruzi; test system = Vero, Tulahuen β-galactosidase; scale = reference: Vero CC50 over T. cruzi IC50; endpoint = selectivity index; result = < 2.1
SMILES = COn1cc(CNC(=S)SC)c2ccccc21; target or system = Trypanosoma cruzi; test = parasite growth, [3H]uracil incorporation; test system = rat L6E9 myoblasts, amastigote; conditions = 72 h; endpoint = IC50; result = 1.2 µM
SMILES = c1ccc2c(NCC3CCCO3)ncnc2c1 (stereo not drawn); target or system = Trypanosoma cruzi; test = mRNA translation, refers to: Renilla luciferase reporter; test system = cell-free translation extract; conditions = 40 µM, 2 h; endpoint = inhibition; result = 34.9%
SMILES = COC(=O)N[C@H](C(=O)N1CC2(CC2)C[C@H]1c1nc(-c2ccc3c(c2)C(F)(F)c2cc(-c4ccc5[nH]c([C@@H]6[C@H]7CC[C@H](C7)N6C(=O)[C@@H](NC(=O)OC)C(C)C)nc5c4)ccc2-3)c[nH]1)C(C)C; target or system = Trypanosoma cruzi; test system = Vero, Tulahuen β-galactosidase; scale = reference: Vero CC50 over T. cruzi IC50; endpoint = selectivity index; result = 873
SMILES = Cc1cc(C)c(C#N)c(NCC(O)c2ccc(F)cc2)n1 (stereo not drawn); target or system = Trypanosoma cruzi; test system = MRC5, Tulahuen, beta-galactosidase; conditions = intracellular amastigotes; endpoint = EC50; result = 33.3 µM
SMILES = O=C(Cn1ccnc1[N+](=O)[O-])NCc1ccccc1; target or system = Trypanosoma cruzi; test = trypomastigote release; test system = CHO, Y GFP-expressing; conditions = 6 d post infection, 0.5% heat-inactivated FBS, low ROS; endpoint = IC50; result = 1.35 µM
SMILES = COc1ccc(C(=O)CSc2[nH]c(=O)cc(C(F)(F)F)c2C#N)cc1; target or system = Trypanosoma cruzi; test system = MRC5, Tulahuen, beta-galactosidase; conditions = intracellular amastigotes; endpoint = EC50; result = 15.4 µM
SMILES = CC(Cl)C(=O)N1CCn2c(cc3c(Cl)cccc32)C1 (stereo not drawn); target or system = UCHL1; test = covalent, intact protein LC-MS; conditions = 12.5 µM; endpoint = labelling; result = 15.1%
SMILES = CN(C)c1nc(NCC2CCCO2)c2ccccc2n1.Cl (stereo not drawn); target or system = Trypanosoma cruzi; test = mRNA translation, refers to: Renilla luciferase reporter; test system = cell-free translation extract; conditions = 40 µM, 2 h; endpoint = inhibition; result = 45.9%
SMILES = Cc1cc(C)c(C#N)c(SCC(=O)c2ccccc2C)n1; target or system = Trypanosoma cruzi; test system = MRC5, Tulahuen, beta-galactosidase; conditions = intracellular amastigotes; endpoint = EC50; result = 0.1 µM
SMILES = Cl.c1ccc(CNc2nc(NCC3CCCO3)c3ccccc3n2)nc1 (stereo not drawn); target or system = Trypanosoma cruzi; test = mRNA translation, refers to: Renilla luciferase reporter; test system = cell-free translation extract; conditions = 40 µM, 2 h; endpoint = inhibition; result = 46.9%
SMILES = Cc1cc(C)c(C#N)c(SC(C)C(=O)c2ccccc2)n1 (stereo not drawn); target or system = Trypanosoma cruzi; test system = MRC5, Tulahuen, beta-galactosidase; conditions = intracellular amastigotes; endpoint = EC50; result = 33 µM
SMILES = O=C(Nc1cccc2c(=O)cc(-c3nnn[nH]3)oc12)c1ccc(OCCCCc2ccccc2)cc1; target or system = Trypanosoma cruzi; test system = Vero, Tulahuen β-galactosidase; scale = reference: Vero CC50 over T. cruzi IC50; endpoint = selectivity index; result = 0.8
SMILES = Cl.Clc1cccc(Nc2nc(N3CCOCC3)c3ccccc3n2)c1; target or system = Trypanosoma cruzi; test = mRNA translation, refers to: Renilla luciferase reporter; test system = cell-free translation extract; conditions = 40 µM, 2 h; endpoint = inhibition; result = 55.1%
SMILES = C#CCC(Cc1cnc2nc(N)nc(N)c2n1)c1ccc(C(=O)N[C@@H](CCC(=O)O)C(=O)O)cc1 (stereo partly drawn); target or system = Trypanosoma cruzi; test system = Vero, Tulahuen β-galactosidase; scale = reference: Vero CC50 over T. cruzi IC50; endpoint = selectivity index; result = 4.2
SMILES = COc1ccc(OC)c(-c2csc(NC(=O)CCl)n2)c1; target or system = UCHL1; test = covalent, intact protein LC-MS; conditions = 12.5 µM; endpoint = labelling; result = 11%
SMILES = CC(C)(C)[C@@H]1NC(=O)O[C@@H]2CCC[C@H]2OC/C=C/C(F)(F)c2nc3ccccc3nc2O[C@@H]2C[C@@H](C(=O)N[C@]3(C(=O)NS(=O)(=O)C4(C)CC4)C[C@H]3C(F)F)N(C2)C1=O; target or system = Trypanosoma cruzi; test system = Vero, Tulahuen β-galactosidase; scale = reference: Vero CC50 over T. cruzi IC50; endpoint = selectivity index; result = 0.4
SMILES = OC(Cn1cncn1)(Cn1cncn1)c1ccc(F)cc1F; target or system = Trypanosoma cruzi; test system = CL Brener; scale = reference: Vero IC50 over parasite IC50; endpoint = selectivity ratio; result = 7.3
SMILES = Cc1cc(C)c(C#N)c(OCC(=O)c2ccccc2)n1; target or system = Trypanosoma cruzi; test system = MRC5, Tulahuen, beta-galactosidase; conditions = intracellular amastigotes; endpoint = EC50; result = 20.7 µM
SMILES = Cl.Fc1cccc(Nc2nc(NCC3CCCO3)c3ccccc3n2)c1 (stereo not drawn); target or system = Trypanosoma cruzi; test = mRNA translation, refers to: Renilla luciferase reporter; test system = cell-free translation extract; conditions = 40 µM, 2 h; endpoint = inhibition; result = 65.4%
SMILES = CC[C@@H]1/C=C(\C)C[C@H](C)C[C@H](OC)[C@H]2O[C@@](O)(C(=O)C(=O)N3CCCC[C@H]3C(=O)O[C@H](/C(C)=C/[C@@H]3CC[C@H](Cl)[C@H](OC)C3)[C@H](C)[C@@H](O)CC1=O)[C@H](C)C[C@@H]2OC; target or system = Trypanosoma cruzi; test system = Vero, Tulahuen β-galactosidase; scale = reference: Vero CC50 over T. cruzi IC50; endpoint = selectivity index; result = 160
